Results gathered from unrelated publications.
Lines come from different studies, so protocols differ.

SMILES | assay | system | setting | endpoint | value
COc1ccc(F)cc1C(=O)NCc1ccc(-c2nn([C@@H](C)C(F)(F)F)c(N)c2C(N)=O)cc1 | – | human | oral, 200 mg, tablet | fraction absorbed | 0.91
C=CC(=O)Nc1cc(Nc2ncc(C(=O)OC(C)C)c(-c3cn(C)c4ccccc34)n2)c(OC)cc1N(C)CCN(C)C | – | healthy human, urine | oral, 40 mg single dose, arithmetic mean | fraction of dose excreted | 1.31%
CC(C)(Sc1ccncc1-c1ccc(C#N)c2ccccc12)C(=O)O | – | human, urine | oral, 5 mg, added: febuxostat 10 mg | fraction excreted in urine (0-24 h) | 1.21%
NC[C@@]1(CC(=O)O)[C@@H]2CC[C@H]3C[C@@H]2[C@@H]1C3 | – | human, mild renal impairment, urine | oral, 20 mg single dose, 0-72 h | fraction excreted in urine | 72.7%
CN[C@@H]1COc2c(S(=O)(=O)NC(=O)Nc3c4c(cc5c3CCC5)CCC4)cnn2C1 | – | human, urine | oral, 900 mg, 0-48 h | fraction excreted in urine | 0.181
CCN1CCN(Cc2ccc(Nc3ncc(F)c(-c4cc(F)c5nc(C)n(C(C)C)c5c4)n3)nc2)CC1 | population PK model | human, plasma | oral | fraction absorbed via transit compartment | 0.493
O=C(c1nc2n(n1)[C@H](c1ccccc1)C[C@@H]2F)C1CC1 | – | human | 225 mg single dose, mean | fraction excreted in urine 0-72 h | 0.22%
CC(C)n1c(C2CCNCC2)nc2c([N+](=O)[O-])c(Br)c(Br)cc21 | – | human, urine | oral, 150 mg, median, single dose | fraction excreted in urine | 0.03
CC(=O)Nc1ccc(O)cc1 | estimated from MDCK Papp | MDCK knock-out, human | 1 µM, 90 min | fraction absorbed | 100%
CC(C)OC(=O)[C@@H](C)N[P@@](=O)(OC[C@H]1O[C@@H](n2ccc(=O)[nH]c2=O)[C@](C)(Cl)[C@@H]1O)Oc1ccccc1 | – | human | oral, dose not given, capsule | fraction of dose absorbed via route 1 | 91%
Cl.O=C(NC1CCOCC1)c1csc([C@@H]2C[C@H]2NCC2CC2)c1 | – | human, fed, urine | oral, 30 mg single dose | fraction excreted in urine | 19.6%
NCCONC(=O)[C@@H]1CC[C@@H]2CN1C(=O)N2OS(=O)(=O)O | – | human male, urine | intravenous infusion, 1 g multiple doses, day 9 | fraction excreted in urine (0-8 h) | 86.4%
CCN(CC)CCN(CCNCCc1ccc(O)c2[nH]c(=O)sc12)C(=O)CCOCCc1cccc2ccccc12 | equilibrium dialysis | human, plasma | – | fraction unbound | 0.046
C[C@@H](Oc1ccc(S(C)(=O)=O)cc1C(=O)N1C[C@@H]2C[C@]2(c2cc(C(F)(F)F)on2)C1)C(F)(F)F | – | young healthy humans, urine | oral, 25 mg, 0 to 24 h, single dose | fraction excreted in urine | 1.85%
CNC(=O)c1ccc(-c2cnc3ncc(Cc4ccc5ncccc5c4)n3n2)cc1F | ultrafiltration | human severe hepatic function, plasma | oral, 200 mg, 3 h post-dose, mean | fraction unbound | 0.0425
COc1cc(C(=O)NC2CCN(C)CC2)c(F)cc1Nc1ncc(C(F)(F)F)c(Oc2cccc3c2C(=O)N(C)C3)n1 | – | human, Taiwanese, urine | oral, 200 mg once daily, multiple dose, steady state, 0-24 h, geometric mean | fraction excreted in urine (fe0-24,ss) | 9.23%
CC(=O)N[C@@H](CS)C(=O)O | – | human, plasma | – | fraction unbound | 2.1%
Cl.[2H]C([2H])([2H])CC(=O)c1cnc(NC(=O)C2CC2)cc1Nc1cccc(-c2ncn(C([2H])([2H])[2H])n2)c1OC | – | human, urine | oral, 40 mg twice daily, fasted, multiple doses, mean | fraction excreted unchanged | 0.37%
COc1cc(NC(=O)CCN2CCC(OC(=O)Nc3ccccc3-c3ccccc3)CC2)c(Cl)cc1CNC[C@H](O)c1ccc(O)c2[nH]c(=O)ccc12 | equilibrium dialysis | human, plasma | – | fraction unbound | 0.018
CC(=O)N(C)[C@H]1CCN(C(=O)c2cnc3c(c2)C[C@](C)(c2ccc(F)cc2)N3)C1 | – | male humans, urine | oral, 60 mg once daily, multiple dosing, geometric mean | fraction excreted in urine (0-48 h, steady state) | 57.4%
Cn1cc(-c2cn3nccc3c(-c3cnn([C@]4(CC#N)C[C@@H](C#N)C4)c3)n2)cn1 | – | human, urine | oral, 400 mg once daily, day 10, dosing interval geometric mean | fraction excreted unchanged in urine | 0.8%
Cc1ccc(C(=O)NC2CC2)cc1-n1ncc(C(=O)c2cccc(C#N)c2)c1N | mass balance study | human | – | fraction excreted renally | 11.7%
Cc1cc(-c2nccc3c2ccn3CC(=O)Nc2ccc(-c3cnccn3)cn2)ccn1 | – | human, urine | oral, 15 mg once daily, day 16, geometric mean | fraction excreted in urine (fe) | 2.27%

For quick reference, copied from above:
SMILES | assay | system | setting | endpoint | value
CC(=O)N[C@@H](CS)C(=O)O | – | human, plasma | – | fraction unbound | 2.1%
Cl.[2H]C([2H])([2H])CC(=O)c1cnc(NC(=O)C2CC2)cc1Nc1cccc(-c2ncn(C([2H])([2H])[2H])n2)c1OC | – | human, urine | oral, 40 mg twice daily, fasted, multiple doses, mean | fraction excreted unchanged | 0.37%
COc1cc(NC(=O)CCN2CCC(OC(=O)Nc3ccccc3-c3ccccc3)CC2)c(Cl)cc1CNC[C@H](O)c1ccc(O)c2[nH]c(=O)ccc12 | equilibrium dialysis | human, plasma | – | fraction unbound | 0.018
CC(=O)N(C)[C@H]1CCN(C(=O)c2cnc3c(c2)C[C@](C)(c2ccc(F)cc2)N3)C1 | – | male humans, urine | oral, 60 mg once daily, multiple dosing, geometric mean | fraction excreted in urine (0-48 h, steady state) | 57.4%
